Assay results gathered from unrelated publications.
Every numbered part comes from another study and shows a few of its results, in no order. Positions count from the first letter of the parent shown.

Study 1
Target: CCND3, cyclin fold, Cln2 fusion (human)
Technique: yeast growth competition, sequencing
Matrix: yeast
Notes: weak parent motif
Baseline: not given
Direction: higher = stronger binding
Measurement: normalised enrichment score
Starting sequence: BRCA2 docking peptide (human); PSIKRNLLNEFDR
R13A: 0.196
K4N: 0.07
L8V: 0.123
I3Y: 0.142
K4Q: 0.011
N9L: 0.15
L7T: 0.145
F11W: 0.0509

Study 2
Target: Histone acetyltransferase KAT6A, winged helix 2, GST fusion (KAT6A, Homo sapiens, UniProt Q92794, residues 85-181)
Technique: protein binding microarray
Form: double-stranded DNA, one strand shown
Matrix: in vitro
Concentration: not given
Notes: 8-mer, flanks averaged, mean of 2 arrays, mostly near background
Baseline: not given
Direction: higher = stronger binding
Measurement: E-score
Target sequence (chain): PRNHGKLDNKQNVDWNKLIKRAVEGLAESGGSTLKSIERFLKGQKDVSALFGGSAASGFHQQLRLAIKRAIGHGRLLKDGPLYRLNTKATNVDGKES
GGTTGTAC: 0.113
TATGATGA: -0.039
CTTACCAA: -0.00646
AGATGGTG: -0.0583
AGCAGTAC: -0.00517
ACAAAATC: 0.026
ATAGACTA: -0.0271
AACTTCGC: 0.0164

Study 3
Target: RNA binding protein fox-1 homolog 2, RRM domain, GST-SBP tag (RBFOX2, Homo sapiens, UniProt O43251-10, residues 100-194)
Technique: RNA Bind-n-Seq
Form: RNA
Matrix: in vitro
Concentration: 365 nM
Notes: natural RNA segment, single round, ends assumed
Baseline: no-protein control
Direction: higher = stronger binding
Measurement: RBNS enrichment (R)
All sequences stand within: GGGAGUUCUACAGUCCGACGAUC … UGGAAUUCUCGGGUGCCAA
Construct (chain): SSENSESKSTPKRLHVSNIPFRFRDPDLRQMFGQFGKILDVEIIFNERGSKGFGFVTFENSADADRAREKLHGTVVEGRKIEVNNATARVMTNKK
GAGCACAGUGUCUCCAAGCCCAUCUGGUUUUUUACACUGUUUGUUAAUAAACCCUGAAACUUCUGUGUGCCUGUCUCCUGUCUGAUGCAUUUUCCAGCUGCUCUCUCCAG: 0.698
GCCUUUGCUGACCGUUUUGGGGUUCCCCGCCGGAGCUACAGGGGCAUUUUCUUCCCUAAAACCAACAGUGUCCCACUGACCUCCCCAAGUGUUUGCUGCGUGGCAGAUUU: 0.562
CAUUUUCAAUAAACUUUGGAACAACCUUCUCGUAUCUCCCCUAGAGUUUCGUGCCCCUCUGAACUGUCUGUUAUUGCAAUGUAGUUUAUCAACAGAAUUUGUGUGUUUUC: 0.524
AAGAAACAGUGGAGAGUAGCCACUUCUGGUUCUAGCACUUCUCUUUUGUUAAGAUAGGGUUUGGAUUUAGUAUGAAGCUUUGGCUAAAACCCUUGGGUUUGCCUUAGAAC: 0.374
CAUUUGUAUGUAUAUAUUGUAUAUACAUAUGAGUGUCUGUAUGUGUGUAUAGAUGGAUGGAUGUAACUCAUACUGUACAUUUCCAUCAGGGCACUUAAAAGUUCUGUUAU: 0.206
ACAGUGCCUAUACAUUGGACAAAAAGUCCAAGGAGAGCCAAACUAGUGCAGUAAACGUUUGUACCCAAGUCCUCACCACCAGUCAUGAGUUGGCCUGUCACUUAAGUCAU: 0.494
CACUCCCCUACAAAAGAUGGAGCUUAAUGGAGAAAUUGCAACUUUCAUUAAAAAACAAAUUCAGAUGAAAUAUCAGUAACUGUCUUGGACAGUGCUGAAAUCAGGUGGUU: 0.481
AGCCAGGAGUGUUAAGCGUUCAGUGAUGUGGGGUGAAAAGUUACUACCUGUCAAGGUUUGUGUUACCCUCCUGUAAAUGGUGUACAUAAUGUAUUGUUGGUAAUUAUUUU: 0.453
AGGGUUUCCUCUCAGUCAUUUGUUUACCAGAAACAUGAAAACUGCCUGUCUGGCCGGGCCGCACUUGUGGCCCCCGGGACCCCACCUCUGGCCCCACCUCCCUCAAGUCU: 0.33
CCUAUUCCAUCAAAACCCAGUUUAACUCGGAGGAGCAGUGGACAAAAGCGCUCAAGUUCAUGCUGACCAAUCUCAAGUGGGGUCUUGCCUGGGUGUCCUCACAGUUCUAU: 0.632
AGAUUAUUGCAACAUUUAACCUGAAUUUGUAGAACGGAUGACAUAAAGCAAAUGGAUGUCAAAUGAACGCUGAGCCUGACAGCCUGGGAUGGAGGGGAAGCCCCGCCUCU: 2.18
CCUGCCUCCCCCAGGGCAGGUUGGAGCCCUCAGCCCUGGCUUCUGCUCUCAGCCAGCACCACUGCCCGCUGAUCUCCGUGAUGAUUAACCUGCUGCUUCCUUACACAAGG: 0.321

Other studies, line by line
PhoQ, residues 284 288 289 292 302 303 AGCYAI  fold induction (PhoP, residues 12 14 15 18 19 TTLRV (Escherichia coli, UniProt P23836); Sort-seq, item: YFP reporter; E. coli; PhoQ-PhoP variant library, together with: 10 µM Mg2+; baseline: high Mg2+ state, higher = stronger signaling): 3.29

Excerpt of the above (study 1):
I3Y: 0.142
N9L: 0.15
L7T: 0.145
